Results from different studies.
Protocols differ between the studies behind these lines. ± gives the spread as reported. Converted amounts (≈) assume the structure as drawn.

Structure (SMILES) | test | system | setting | how to read | endpoint | value
COc1c(O)cc2oc3cc(O)c(CC=C(C)C)c(O)c3c(=O)c2c1CC=C(C)C | deconjugation HPLC | Balb/c nu/nu tumour-bearing mice, serum | dose not given, 4 weeks | – | total serum concentration | 2.5 ± 0.2 µg/mL
CC(C)C[C@H]1NC(=O)CNC(=O)[C@H]2CCCN2C(=O)CNC(=O)[C@@H](CCCNC(=N)N)NC(=O)[C@@H](Cc2ccccc2)NC(=O)CNC(=O)[C@@H](Cc2ccc(O)cc2)NC(=O)CNC(=O)[C@@H](CCCNC(=N)N)NC(=O)[C@@H](C)NC(=O)[C@@H](CCCNC(=N)N)NC(=O)[C@@H](Cc2ccccc2)NC(=O)[C@H](N)CSSC[C@H](C(=O)O)NC1=O | RP-HPLC | MDCK cell lysate | pH 7.4, 37 °C | – | stability time | > 23 h
CC(=O)N[C@H](CCCCNC(=O)C(C)F)C(=O)N[C@@H](CS)C(=O)N[C@@H](CS)C(=O)N[C@@H](CCC(=O)O)C(=O)N[C@@H](Cc1c[nH]cn1)C(=O)N[C@H](Cc1ccccc1)C(=O)N[C@@H](CCCNC(=N)N)C(=O)N[C@@H](Cc1c[nH]c2ccccc12)C(=O)N[C@@H](CS)C(=O)N[C@@H](CCCNC(=N)N)C(=O)N1CCC[C@H]1C(=O)N[C@H](C(N)=O)C(C)C (some centres unmarked) [fluorine-18 labelled] | – | C57BL/6 mice, male, B16-F10 tumour, bone | intravenous, 1 h | – | tissue uptake | 0.69 ± 0.18 %ID/g
CN[C@@](C)(C[18F])C(=O)O | – | SCID mouse A549 xenograft, pancreas | 120 min, post injection | – | tissue uptake | 20 ± 2.7 %ID/g
NC(=O)c1nc(F)c[nH]c1=O | UV-Vis spectrophotometry | supercritical CO2 | 120 min, 328 K, 15 MPa, 654.94 kg/m^3 | – | solubility | 141 µg/mL (≈ 897 µM)
O=C1Nc2ccc(Cl)cc2[C@@](C#CC2CC2)(C(F)(F)F)O1 | LC-MS/MS | female hu-HSC-RAG mouse, brain | dose not given, 1 day after 10-day dosing | – | tissue concentration | < 35 ng/g
CC[C@H]1CN2CCc3cc(OC)c(OC)cc3[C@@H]2C[C@@H]1C[C@@H]1c2cc(OC)c(OC)cc2CCN1C(=O)[C@@H]1CCCN1C(=O)[C@H](C)N | – | mouse, male | intravenous, 16 mg/kg, single toxic dose | – | time to convulsions and death | 1 to 2 min
CC(C)C(=O)OC[C@H]1O[C@@H](n2ccc(NO)nc2=O)[C@H](O)[C@@H]1O | microdialysis | pregnant rat, blood, fetus, placenta, amniotic fluid | iv, 100 mg/kg, with: NBMPR 10 mg/kg | reference: compound alone | biotransformation and biodistribution | no effect
CCCN(CCC)C(=O)Oc1c(OC)cc(-c2nc(-c3ccccc3)c(-c3cccs3)[nH]2)cc1OC | – | C57BL/6 mouse, CES1 knockout, liver homogenate | 10 µM, 1 h, 37 °C | – | remaining compound | > 50%
CC[C@H](C)[C@@H]1NC(=O)[C@@H]2CSSC[C@H](NC(=O)CNC(=O)c3ccc(F)cc3)C(=O)N[C@@H](CCCNC(=N)N)C(=O)N[C@@H](CO)C(=O)N[C@@H](CC(C)C)C(=O)N[C@@H](C)C(=O)N[C@@H](CCCNC(=N)N)C(=O)N[C@@H]([C@@H](C)O)C(=O)N[C@@H](CC(=O)O)C(=O)N[C@@H](CC(C)C)C(=O)N[C@@H](CC(=O)O)C(=O)N[C@@H](Cc3c[nH]cn3)C(=O)N[C@@H](CC(C)C)C(=O)N[C@@H](CCCNC(=N)N)C(=O)NCC(=O)N[C@@H](CCCNC(=N)N)C(=O)N[C@H]3CSSC[C@H](NC1=O)C(=O)N[C@@H](CC(C)C)C(=O)N[C@@H](CCC(=O)O)C(=O)N[C@@H](CC(N)=O)C(=O)NCC(=O)N[C@@H](Cc1ccccc1)C(=O)N[C@H](C(=O)NCC(=O)O)CSSC[C@H](NC(=O)[C@H](CC(=O)O)NC(=O)[C@H](CO)NC(=O)[C@H](CC(=O)O)NC(=O)[C@H](CO)NC(=O)[C@H](CO)NC3=O)C(=O)N[C@@H](CC(C)C)C(=O)N[C@@H](C)C(=O)N[C@@H](CCC(=O)O)C(=O)N2 [fluorine-18 labelled] | γ-counting | mouse, pancreas | – | – | tissue uptake | 0.03 ± 0.01 %ID/g
CN1C(=CC=C2CCCC(=CC=C3N(CCCCCC(=O)O)c4ccccc4C3(C)C)C2=O)C(C)(C)c2ccccc21 | – | cell medium-acetonitrile | pH 7.5, 25 °C | – | emission maximum | 626 nm
CCCCCCCCCC[N+](C)(C)C | in vitro-in vivo extrapolation | human | – | – | hepatic clearance | 0.67 mL/h/g liver
CCCCCOc1ccc(-c2ccc(-c3ccc(C(=O)N[C@H]4C[C@@H](O)[C@@H](O)NC(=O)[C@@H]5[C@@H](O)[C@@H](C)CN5C(=O)[C@H]([C@@H](C)O)NC(=O)[C@H]([C@H](O)[C@@H](O)c5ccc(O)cc5)NC(=O)[C@@H]5C[C@@H](O)CN5C(=O)[C@H]([C@@H](C)O)NC4=O)cc3)cc2)cc1 | noncompartmental | human neonates not on ECMO, plasma | intravenous, 1.5 mg/kg/day maintenance, doses 3-5 | – | median AUC at steady state | 81900 ng·h/mL
CC[C@@]1(O)C(=O)OCc2c1cc1n(c2=O)Cc2cc3c(CN(C)C)c(O)ccc3nc2-1 | – | human patients, plasma | oral, 8 mg weekly, MTD arm, weekly dosing, with: pazopanib | reference: with pazopanib over alone | AUC(0-inf) ratio | 1.62
CC(C)C[C@@H]1NC(=O)[C@@H](NC(=O)CN)CSSC[C@@H]2NC(=O)[C@@H]3CSSC[C@@H](C(=O)N[C@@H](CC(N)=O)C(=O)N[C@@H](Cc4ccccc4)C(=O)N[C@@H](CO)C(=O)N[C@@H](Cc4ccccc4)C(N)=O)NC(=O)[C@H](CC(C)C)NC(=O)[C@H](CCCCN)NC(=O)[C@H](Cc4ccccc4)NC(=O)[C@H](CC(C)C)NC(=O)[C@H](CCCCN)NC(=O)[C@H](CO)NC(=O)[C@H](CSSC[C@H](NC(=O)[C@H](CCCCN)NC(=O)[C@H](Cc4c[nH]c5ccccc45)NC(=O)[C@H](Cc4c[nH]c5ccccc45)NC(=O)[C@H](Cc4ccccc4)NC(=O)[C@H](CCC(=O)O)NC1=O)C(=O)N[C@@H](CC(N)=O)C(=O)N1CCC[C@H]1C(=O)N[C@@H](CC(N)=O)C(=O)N[C@@H](CC(=O)O)C(=O)N[C@@H](CC(=O)O)C(=O)N[C@@H](CCCCN)C(=O)N3)NC(=O)[C@H](CCCCN)NC(=O)[C@H](CC(C)C)NC(=O)[C@H](CCCCN)NC(=O)[C@@H]1CCCN1C(=O)[C@H](CCCNC(=N)N)NC2=O | ultrafiltration, HPLC | saline without serum | 50 µM, 10 min | – | retained fraction | 70%
CCCCCOc1ccc(-c2ccc(-c3ccc(C(=O)N[C@H]4C[C@@H](O)[C@@H](O)NC(=O)[C@@H]5[C@@H](O)[C@@H](C)CN5C(=O)[C@H]([C@@H](C)O)NC(=O)[C@H]([C@H](O)[C@@H](O)c5ccc(O)cc5)NC(=O)[C@@H]5C[C@@H](O)CN5C(=O)[C@H]([C@@H](C)O)NC4=O)cc3)cc2)cc1 | – | adult patients | iv, dose not given, 3, during treatment | – | patients with hepatic adverse events | 14%
O=C(CC(=O)c1ccccc1)c1ccccc1 | – | male C57BL/6J mouse, Nrf2 wild type, plasma | intraperitoneal, 100 mg/kg | – | terminal half-life | 2.35 h
CCCCCOc1ccc(-c2cc(-c3ccc(C(=O)N[C@H]4C[C@@H](O)[C@@H](O)NC(=O)[C@@H]5[C@@H](O)[C@@H](C)CN5C(=O)[C@H]([C@H](O)CC(N)=O)NC(=O)[C@H]([C@H](O)[C@@H](O)c5ccc(O)c(OS(=O)(=O)O)c5)NC(=O)[C@@H]5C[C@@H](O)CN5C(=O)[C@H]([C@@H](C)O)NC4=O)cc3)no2)cc1 | – | human paediatric patients 2 to 5 years, plasma | intravenous, 4.5 mg/kg once daily, day 7, geometric mean | – | AUC(0-tau) | 238000 ng·h/mL
Cn1c(COP(=O)(NCCBr)NCCBr)cnc1[N+](=O)[O-] | – | human blood | 0.2 and 2 µM, 0.5 h, 37 °C | – | blood-to-plasma ratio | 1.61
Cc1cnc(C(=O)N[C@H]2CCCCC/C=C\[C@@H]3C[C@@]3(C(=O)NS(=O)(=O)C3CC3)NC(=O)[C@@H]3C[C@@H](Oc4nc5ccccc5c5ccccc45)CN3C2=O)cn1 | – | healthy human volunteers, plasma | oral, dose not given, with: escitalopram plus 2D regimen | – | AUC(0-24) | 2760 ng·h/mL
C[N+](C)(C)[C@@H](Cc1c[nH]c(=S)[nH]1)C(=O)[O-] | – | rat treated with 1,25-dihydroxyvitamin D3, liver | intravenous | reference: untreated control rats | decrease in tissue partition coefficient | 41.8%
CCc1c2c(nc3ccc(OC(=O)N4CCC(NCCCCC(=O)O)CC4)cc13)-c1cc3c(c(=O)n1C2)COC(=O)C3(O)CC (centres unmarked) | – | plasma | concentration not given, with: methimazole | reference: without methimazole | AUC | no effect
[123I]c1cncc(OC[C@@H]2CCN2)c1 | SPECT | human, cerebellum | intravenous bolus, 9.1 mCi | reference: tissue over plasma | tissue/plasma ratio | 11.1
O[C@H]1CCCN[C@@H]1CCCn1cnc2c(Cl)c(Cl)ccc21 | – | human, plasma | oral, 600 mg, single dose, healthy volunteers | – | MRT | 9.79 h
CC1(C)S[C@@H]2[C@H](NC(=O)[C@@H](C(=O)O)c3ccsc3)C(=O)N2[C@H]1C(=O)O | – | rat plasma | 2400 ng/mL, -20 °C to room temperature, three freeze-thaw cycles | – | measured concentration | 2344 ± 16 ng/mL
CCCCCCCCCCCC(=O)NCCCC[C@H](NC(=O)[C@@H](NC(=O)[C@@H](NC(=O)[C@H](C)NC(=O)[C@H](C)NC(=O)[C@H](CCCCN)NC(=O)[C@H](CCCCN)NC(=O)[C@H](CS)NC(=O)[C@H](CCCCN)NC(=O)[C@@H]1CCCN1C(=O)[C@H](CC(C)C)NC(=O)[C@@H](NC(=O)[C@H](Cc1c[nH]c2ccccc12)NC(=O)[C@H](CC(C)C)NC(=O)[C@@H](N)CCCCN)C(C)C)C(C)C)C(C)C)C(N)=O | three-compartment model | Sprague Dawley rat, plasma | intravenous, 2.5 mg | – | fast intercompartmental clearance | 5 mL/h
